Published values gathered from unrelated publications.
Each line is one published result; not all experiments were run side by side. Several values in a cell are separate wells, animals, samples, runs or records. ± marks the error that the study gave.
UCHL1: Ubiquitin carboxyl-terminal hydrolase isozyme L1 (UCHL1, Homo sapiens, UniProt P09936)
UniProt P09936, sequence (whole entry, looked up): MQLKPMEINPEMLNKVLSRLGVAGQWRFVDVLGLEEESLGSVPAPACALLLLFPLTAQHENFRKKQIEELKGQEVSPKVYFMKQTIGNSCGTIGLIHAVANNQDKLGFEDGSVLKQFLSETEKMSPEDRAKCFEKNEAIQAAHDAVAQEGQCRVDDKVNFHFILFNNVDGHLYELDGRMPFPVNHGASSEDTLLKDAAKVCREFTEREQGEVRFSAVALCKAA

CCc1c(-c2ccccc2)c(-c2ccccc2)nn1-c1ccccc1-c1cccc(OCC(=O)O)c1  concentration (Sprague-Dawley rat, small intestine homogenate; oral, 10 mg/kg, 4 h): 3610 ng/mL and 2630 ng/mL
N#CC(=Cc1ccccc1Cl)C(=O)NCc1ccccc1  labelling (UCHL1; covalent, intact protein LC-MS; 12.5 µM): 35%
COc1nc(-c2cc(C)c(N[C@@H](C)c3cc(F)cc(F)c3)nn2)ccc1-n1cnc(C)c1  concentration (rat Sprague-Dawley male, plasma; oral, 5 mg/kg daily for 9 days, 4 h after dose): 2020 ng/mL
CC(C)(O)c1coc(S(=O)(=O)NC(=O)Nc2c3c(cc4c2CCC4)CCC3)c1  concentration (Sprague-Dawley rat, male, ankle joint tissue; oral, 2 mg/kg, 2 h): 17000 ng/g and 5190 ng/g and 6980 ng/g
Cc1nccc2c1c(=O)n(C)c1cc(OC[C@@H](N)CC(C)C)c(C#N)cc21  concentration (rat, lumbar spinal cord; intrathecal, 3 µg, 30 min): 229 nM
CN(C(=O)n1cnc(-c2ccc[n+]([O-])c2)c1)[C@H]1CC[C@H](O)CC1  concentration (Wistar rat, midbrain; oral, 10 mg/kg/day of BIA 10-2474, 48 h, repeated 5 days): 14 ± 0.6 ng/g
O=C1C[C@@H](c2ccc(O)cc2)Oc2cc(O)cc(O)c21  concentration (Sprague-Dawley rat, kidney; intravenous, 1 mg/kg, 12 h): 54.2 ± 13 ng/g
N#CC(C(=O)CCl)=C1Nc2cc(Cl)ccc2S1  labelling (UCHL1; covalent, intact protein LC-MS; 12.5 µM): 9.42%
CN(C(=O)n1cnc(-c2cccnc2)c1)[C@H]1CC[C@H](O)CC1  concentration (Wistar rat, medulla oblongata; oral, 10 mg/kg of BIA 10-2474, 1 h, single dose): 14.2 ± 0.9 ng/g
COC(=O)[C@@H]1[C@H]2C[C@H]3c4[nH]c5ccccc5c4CCN3C[C@@H]2CC[C@@H]1O  concentration (rat, brain; intraperitoneal, 1 mg/kg, 1.5 h, with: tizanidine): 300 nM

Some of these lines once more:
Cc1nccc2c1c(=O)n(C)c1cc(OC[C@@H](N)CC(C)C)c(C#N)cc21  concentration (rat, lumbar spinal cord; intrathecal, 3 µg, 30 min): 229 nM
